Measurements gathered from unrelated publications.
Each line is one published result; not all experiments were run side by side. Several values in a cell are separate wells, animals, samples, runs or records. ± marks the error that the study gave.

| SMILES | test | test system | setting | plasma concentration |
| --- | --- | --- | --- | --- |
| COc1ccc(C(N)=O)cn1 |  | Han Wistar rats, male, plasma | oral, 30 mg/kg, 3.00 h | 14.8 µM |
| CC(C)n1ncc2c(C(=O)NC[C@@H](C)N)cc(C3CC3)nc21 |  | mouse BALB/c female, plasma | intraperitoneal, 30 mg/kg, 2 h | 1240 ng/mL and 1010 ng/mL and 1310 ng/mL and 1290 ng/mL |
| CC[C@H](C)[C@H](NC(=O)[C@H](Cc1ccc(O)cc1)NC(=O)[C@@H](NC(=O)[C@H](CCCNC(=N)N)NC(=O)[C@@H](N)CC(=O)O)C(C)C)C(=O)N[C@@H](Cc1c[nH]cn1)C(=O)N1CCC[C@H]1C(=O)O | LC-MS/MS | Sprague-Dawley rat, both sexes, plasma | subcutaneous, 10 mg/kg/day, day 27, 0.25 h, 15 min | 257 ng/mL |
| CC1(C)CC[C@@]2(CO)C(=C3C=C[C@@H]4[C@@]5(C)CC[C@H](O)[C@@](C)(CO)[C@@H]5CC[C@@]4(C)[C@]3(C)C[C@@H]2O)C1 | UHPLC-MS/MS | mouse, plasma | oral, 50 mg/kg of saikosaponin a, 6 h | 46.4 ng/mL |
| C=CC(=O)N1CCCC(n2c(=O)c3ncccc3n(Cc3ccc(Oc4ccccc4)cc3)c2=O)C1 (centres unmarked) |  | male BALB/c mouse, plasma | intraperitoneal, 200 mg/kg, 6 h | 223 ng/mL |
| CNc1cc(C)c(C(N)=O)cn1 |  | Han Wistar rats, male, plasma | oral, 30 mg/kg, 0.25 h | 82.7 µM |
| C=C[C@]1(C)C[C@@H](OC(=O)CSc2ccc(NC(=O)c3ccco3)cc2)[C@]2(C)[C@H](C)CC[C@]3(CCC(=O)[C@H]32)[C@@H](C)[C@@H]1O |  | Mycoplasma gallisepticum-infected chickens, plasma | intramuscular, 5 mg/kg, 0.083 h | 869 ng/mL and 583 ng/mL and 855 ng/mL and 695 ng/mL and 409 ng/mL |
| O=C1CCC(N2Cc3cc(C(=O)O)c(F)cc3C2=O)C(=O)N1 (centres unmarked) |  | CD-1 mouse, male | oral, 10 mg/kg parent drug, 0.67 h | 234 ± 109 ng/mL |
| Cc1ncsc1-c1ccc(CNC(=O)[C@@H]2C[C@@H](O)CN2C(=O)[C@@H](NC(=O)COCC(C)(COCCOCCOCCNC(=O)C[C@@H]2N=C(c3ccc(Cl)cc3)c3c(sc(C)c3C)-n3c(C)nnc32)COCCOCCOCCNC(=O)C[C@@H]2N=C(c3ccc(Cl)cc3)c3c(sc(C)c3C)-n3c(C)nnc32)C(C)(C)C)cc1 |  | male C57BL/6 mice, plasma | intravenous, 5 mg/kg, 2 h, 20-fold diluted sample | 3120 ng/mL and 3480 ng/mL |
| Cc1noc(C)c1Cn1cc(N2C(=O)CN(Cc3cccc(OS(=O)(=O)O)c3)C2=O)cn1 |  | Sprague-Dawley rat, male | oral, 100 mg/kg of parent drug, 0.5 h | 4750 ng/mL |
| CNc1cc(N)c(C(N)=O)cn1 |  | Han Wistar rats, male, plasma | oral, 30 mg/kg, 4.00 h | 6.01 µM |
